Measured values collected from several papers.
A part holds a random share of what one study measured.

Block 1
Target: PABPC1L2, full length, GST fusion (mouse, UniProt A0ABA7IW68)
Technique: RNAcompete
Molecule type: RNA
Matrix: in vitro
Concentration: 20 nM
Setting: 7-mer, probes averaged, single round
Reference: mean of 7-mers
Direction: higher = stronger binding
Target sequence (chain): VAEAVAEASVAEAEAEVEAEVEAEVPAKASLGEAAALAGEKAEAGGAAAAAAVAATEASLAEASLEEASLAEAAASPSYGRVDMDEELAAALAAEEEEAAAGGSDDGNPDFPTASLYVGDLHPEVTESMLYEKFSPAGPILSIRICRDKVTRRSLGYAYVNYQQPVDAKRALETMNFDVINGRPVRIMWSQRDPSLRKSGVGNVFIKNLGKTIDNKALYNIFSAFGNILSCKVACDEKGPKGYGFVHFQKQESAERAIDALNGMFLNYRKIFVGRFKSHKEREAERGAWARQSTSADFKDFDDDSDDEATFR
Sequence | 7-mer Z-score
CCACGCC | -0.331
GAACAAG | 0.383
CUUUCUC | -0.434
AGACGUC | -0.364
UACAGUU | -0.304
CGGACGA | -0.0246
UUAUUCC | -0.34
AUAUGCA | -0.0681

Block 2
Cell line: HEK-293T/ACE2
Concentration: concentration not given
Time: 16 (unit not given)
Reference: vehicle
Structure (SMILES) | viability
Nc1c(CC(=O)O)cccc1C(=O)c1ccc(Br)cc1 | 105%
O=C(c1ccc(F)c(F)c1Nc1ccc(I)cc1F)N1CC(O)([C@@H]2CCCCN2)C1 | 94.1%
CC1=C(/C=C/C(C)=C/C=C/C(C)=C\C(=O)O)C(C)(C)CCC1 | 103%

Block 3
Target: Histone acetyltransferase KAT6A, both winged helices, GST fusion (KAT6A, Homo sapiens, UniProt Q92794, residues 1-181)
Technique: protein binding microarray
Molecule type: double-stranded DNA, one strand shown
Matrix: in vitro
Concentration: not given
Setting: 8-mer, flanks averaged, mean of 2 arrays, mostly near background
Reference: not given
Direction: higher = stronger binding
Target sequence (chain): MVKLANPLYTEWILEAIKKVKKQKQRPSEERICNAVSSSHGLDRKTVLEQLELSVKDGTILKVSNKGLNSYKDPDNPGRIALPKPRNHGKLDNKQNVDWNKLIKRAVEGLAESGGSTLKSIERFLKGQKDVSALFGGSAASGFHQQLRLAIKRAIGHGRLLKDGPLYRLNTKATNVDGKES
Sequence | E-score
TAATGCAA | -0.217
TACCGCAA | 0.188
AGCAAGTG | -0.314
TCCTAGAA | -0.106
GCTAGCAC | 0.00975
CAGACAGC | -0.0288
CAGCAAGC | -0.126
GGCTGCCA | -0.0732

Block 4
Target: Replicase polyprotein 1ab, main protease (rep, Severe acute respiratory syndrome coronavirus 2, UniProt P0DTD1)
Effect on: enzyme activity
Mode: inhibitor
Concentration: 20 µM
Setting: hit confirmation
Structure (SMILES) | inhibition
O=S(=O)(O)c1cc(I)c(O)c2ncccc12 | 43.7%
NC(=S)NN=Cc1ccncc1 | 1.4%
O=C1/C(=C/c2ccc([N+](=O)[O-])cc2)CS(=O)(=O)C/C1=C\c1ccc([N+](=O)[O-])cc1 | 57.1%

Block 5
Target: Replicase polyprotein 1ab, polymerase (rep, Severe acute respiratory syndrome coronavirus 2, UniProt P0DTD1)
Effect on: enzyme activity
Mode: inhibitor
Concentration: 20 µM
Compound | inhibition [%]
Cn1ccnc1S | 19
N[C@@H]1CCCCN(c2c(F)cc3c(=O)c(C(=O)O)cn(C4CC4)c3c2Cl)C1 | 2.57
O=C1CC2(CCCC2)CC(=O)N1CCCCNCC1COc2ccccc2O1 (stereo not shown) | -2.83
CC(C)(S)[C@@H](N)C(=O)O | 2.01
CCOC(=O)N1c2ccc(C(F)(F)F)cc2[C@@H](N(Cc2cc(C(F)(F)F)cc(C(F)(F)F)c2)C(=O)OC)C[C@H]1CC | 3.96
CC[N+](C)(CC)CCOC(=O)C1c2ccccc2Oc2ccccc21 | -6.23
O=C1N=C(O)NC1(c1ccccc1)c1ccccc1 | 22.4
COc1cc(C(=O)NCCCCCC(=O)O)cc(OC)c1OC | -10.9
NCCC(=O)N[C@@H](Cc1c[nH]cn1)C(=O)O | 21.1
COc1ccccc1N1CCN(CCCNc2cc(=O)n(C)c(=O)n2C)CC1 | 1.71
COc1ccc(C(=O)c2c(C)n(CCN3CCOCC3)c3ccccc23)cc1 | 4.14
O=C(c1ccc(OCCN2CCCCC2)cc1)c1c(-c2ccc(O)cc2)sc2cc(O)ccc12 | -2.03
CCC(=O)c1ccc(OCC(O)CN2CCN(c3ccccc3)CC2)cc1 (stereo not shown) | 2.19
CCOCc1cc(OC)c(-c2ccc(C[C@H](NC(=O)c3c(F)cccc3F)C(=O)O)cc2)c(OC)c1 | -0.27
Cc1cncc(CN2CCC(=C3c4ccc(Cl)cc4CCc4cccnc43)CC2)c1 | 0.34
CC(S)C(=O)NCC(=O)O (stereo not shown) | 6.82
Cc1nnc2ccc(-c3cccc(C(F)(F)F)c3)nn12 | -3.19
CCOC(=O)Nc1ccc2c(c1)N(C(=O)CCN1CCOCC1)c1ccccc1S2 | -2.92
COc1ccc(OC)c(C(O)CNC(=O)CN)c1 (stereo not shown) | -2.97
CC1(C)[C@@H](O)CC[C@]2(C)[C@H]3C(=O)C=C4[C@@H]5C[C@@](C)(C(=O)O)CC[C@]5(C)CC[C@@]4(C)[C@]3(C)CC[C@@H]12 | 2.98
COc1ccc(Cl)cc1NC(=O)Nc1cc(C)nc2ccccc12 | 4
CC(C)(C)NCC(O)c1cc(Cl)c(N)c(C(F)(F)F)c1 (stereo not shown) | 1.92
O=c1[nH]nc2c3c(cccc13)N=C(CN1Cc3ccccc3C1)N2 | 0.16
Cc1ccc(/N=C/N(C)/C=N/c2ccc(C)cc2C)c(C)c1 | -0.68
O/N=C/c1cc[n+](COC[n+]2ccc(/C=N/O)cc2)cc1 | -6.89

Block 6
Target: Ras GTPase-activating protein-binding protein 1, C-terminal RGG region (G3BP1, Homo sapiens, UniProt Q13283)
Chain of UniProt Q13283 (whole entry, looked up): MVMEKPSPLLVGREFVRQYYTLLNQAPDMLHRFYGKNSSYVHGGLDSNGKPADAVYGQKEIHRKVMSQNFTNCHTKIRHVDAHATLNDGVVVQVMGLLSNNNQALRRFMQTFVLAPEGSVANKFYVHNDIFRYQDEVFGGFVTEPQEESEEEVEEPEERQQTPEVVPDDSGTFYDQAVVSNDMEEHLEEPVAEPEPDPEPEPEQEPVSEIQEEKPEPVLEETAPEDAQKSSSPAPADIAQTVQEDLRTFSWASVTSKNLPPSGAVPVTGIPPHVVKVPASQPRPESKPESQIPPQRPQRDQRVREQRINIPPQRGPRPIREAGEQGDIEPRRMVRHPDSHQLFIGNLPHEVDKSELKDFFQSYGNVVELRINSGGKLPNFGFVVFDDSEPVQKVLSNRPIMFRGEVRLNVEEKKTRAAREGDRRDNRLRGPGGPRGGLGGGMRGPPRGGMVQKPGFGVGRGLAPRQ
Technique: RNA Bind-n-Seq
Molecule type: RNA
Matrix: in vitro
Concentration: 1 µM
Setting: whole 134-nt RNA, ends assumed
Added: 150 mM KCl
Reference: input library
Direction: higher = stronger binding
Shared flanks, not repeated: GGGAGUUCUACAGUCCGACGAUC … UGGAAUUCUCGGGUGUCAAGG
Sequence | log2 enrichment
GCAGGAAGUAAAAAUAAAUGGAAAUGCUUCGGAUAGUGGCAGGGGUGGGGGUUGCUAAGGAAAGGGUGGGAUGGGAGUGGGUAAAGAGUU | 1.32
CCUCAAGUCCUGUGCUACACAUCGUAUGUACCGAAUCGGGGCGGGCGGGCGGGAAAGUAUUAUGUUACGCCGUUCGGAUCUGCACUUCCA | 1.75
UCGGAGGUGGAUUUUGUUUAUUUUUUUAGCUCAUUUCCAGGGGUGGGAAUUUUUUUUUAAUAUGUGUCAUGAAUAAAGUUGUUUUUGAAA | 3.21
CAAGUCCUGUGCUACACAUCGUAUGUACCGAAUCGGGUUUUUGGGUUUGGGUGGGAAAGUAUUAUGUUACGCCGUUCGGAUCUGCACUUC | 1.51
UCAGAAGGUCUUUUAAGUCUGACCACCCAGCUUGUCAAGGAAAAACUCUCCACCUGUGAAGCAGAGGACAUCGCCACCUAUGAGCAGAAU | 0.358
AAGUCCUGUGCUACACAUCGUAUGUACCGAAUCGGGUUUGGGUGGGAAAAAAAGGGAAAGUAUUAUGUUACGCCGUUCGGAUCUGCACUU | 0.302
AAGUCCUGUGCUACACAUCGUAUGUACCGAAUCGGAAAAAGGAAAGGUUUUUUUGGAAAGUAUUAUGUUACGCCGUUCGGAUCUGCACUU | -2.46
AGUCCUGUGCUACACAUCGUAUGUACCGAAUCAAAUUUAAACCCCCAAACCCCCAAAAAAGUAUUAUGUUACGCCGUUCGGAUCUGCACU | -0.962

Some of these lines once more (block 5):
Compound | inhibition [%]
COc1ccc(C(=O)c2c(C)n(CCN3CCOCC3)c3ccccc23)cc1 | 4.14
O=C(c1ccc(OCCN2CCCCC2)cc1)c1c(-c2ccc(O)cc2)sc2cc(O)ccc12 | -2.03
CCC(=O)c1ccc(OCC(O)CN2CCN(c3ccccc3)CC2)cc1 (stereo not shown) | 2.19
CCOCc1cc(OC)c(-c2ccc(C[C@H](NC(=O)c3c(F)cccc3F)C(=O)O)cc2)c(OC)c1 | -0.27
Cc1cncc(CN2CCC(=C3c4ccc(Cl)cc4CCc4cccnc43)CC2)c1 | 0.34
CC(S)C(=O)NCC(=O)O (stereo not shown) | 6.82
Cc1nnc2ccc(-c3cccc(C(F)(F)F)c3)nn12 | -3.19
CCOC(=O)Nc1ccc2c(c1)N(C(=O)CCN1CCOCC1)c1ccccc1S2 | -2.92
COc1ccc(OC)c(C(O)CNC(=O)CN)c1 (stereo not shown) | -2.97
